Assay results gathered from unrelated publications.
Each line is one published result; not all experiments were run side by side. “And” joins repeats or separate records; there may be more than shown. ± marks the error that the study gave.

`Cc1cccc(-c2[nH]c(CNc3ccccc3F)nc2-c2ccc3ncnn3c2)n1` has an XTT absorbance of 4.2 E-1 and 6.3 E-1 and 4.4 E-1 (pomalidomide-resistant MM1.S cells; XTT; 0.5 µM; higher = more viable cells).
The EC50 of `C=C1C(=O)OC2CC1C(OC(C)=O)C/C(C)=C/CC/C(C)=C\CCC2(C)O` (centres unmarked) is reported as greater than 50 µM (iPSC-derived cardiomyocytes; concentration-response curve, refers to: MyBP-C protein level).
Under “change from baseline”, `NC(=O)c1cnc2[nH]ccc2c1N[C@@H]1[C@@H]2CC3C[C@H]1C[C@@](O)(C3)C2` is recorded as 0.05% (flow cytometry, refers to: CD8+ memory T cells; Japanese healthy subjects, peripheral blood; oral, 100 mg twice daily, day 4).
`Cc1cc(Nc2ncc(Cl)c(Nc3ccccc3S(=O)(=O)C(C)C)n2)c(OC(C)C)cc1C1CCNCC1`: “log2 fold change” -2.01 (CLB-GE; phosphoproteomics LC-MS/MS, refers to: RPS6 phosphorylation; 200 nM, 60 min; reference: untreated).
`Cc1nn(-c2nc3c(F)cc(F)cc3s2)c(O)c1C(c1ccc(C(F)(F)F)cc1)c1c(C)nn(-c2nc3c(F)cc(F)cc3s2)c1O` gave an inhibition of 92.6% and 92.2% and 92.4% and 92.1% and 91.8% (RAW-ISG; IFN luciferase reporter; 10 µM, together with: HT-DNA).
For `CN(C)c1ccc2nc3ccc(=[N+](C)C)cc-3sc2c1`, “mIPSC rise time 10-90%” read “increased” (mouse CA1 pyramidal neurons; patch clamp; hippocampal slices; 10 µM).
Under “average fractional effect”, `COc1cc2ncnc(Nc3ccc(Oc4ccccc4)cc3C)c2cc1OC.O=C(O)C(F)(F)F` is recorded as 0.158% (LoVo (KRAS G13D); cell viability, resazurin; 0.1 µM, 72 h, together with: trametinib 0 nM; reference: DMSO).
`O=C(Nc1nnc2[nH]c(=S)[nH]c(-c3ccc(Cl)cc3)c1-2)c1ccccc1` gave a growth percent of 99.7% (786-0; NCI60 SRB; 10 µM).
With `NCCCOc1cc(NC(=O)c2cccc(C(=O)Nc3cc(OCCCN)c4ccccc4n3)n2)nc2ccccc12` the ΔTm was 31.4 ± 0.8 K (human telomeric G-quadruplex DNA; FRET melting; 1 µM, pH 7.4, together with: 60 mM potassium).
With `COc1c(O[C@@H]2O[C@H](CO)[C@@H](O)[C@H](O)[C@H]2O)c(C)cc2c1C(=O)c1c(O)cccc1C2=O` the cell viability was 23 ± 2.88% (HepaRG co-cultured with HK-2; MTT; 266.67 µM, 24 h; reference: untreated control).
`COc1cccc(CN(CCN(CCN(C)C)Cc2ccccc2)Cc2ccccc2)c1`: “cells in G1 phase” 92% (WI-38 quiescent cells; 10 µM, 21 h, cell cycle re-entry, together with: 10% FBS).
With `CCCCN1CCN(c2ccc3[nH]c(-c4ccc5[nH]c(-c6ccc(C(F)(F)F)cc6)nc5c4)nc3c2)CC1` the growth percent was -84.9% (786-0; cell growth, NCI-60 SRB; 10 µM, 48 h).
The viability of `NC(=O)c1cccc(NC(=O)/C=C/c2c[nH]c3ccccc23)c1` is reported as 112% (OCI-Ly1; 0.1 µM, 120 h).
`O=C(COc1cccc2c1C(=O)N(C1CCC(=O)NC1=O)C2=O)NCCOCCOCCNS(=O)(=O)Nc1cccc(-c2cn3cc(C(=O)NC4CCC4)ccc3n2)c1` (centres unmarked) — result for “log2 fold change”: -0.057 (MV4-11; TMT proteomics, refers to: ALDOA; whole proteome; 10 µM, 4 h; reference: DMSO).
`c1coc(-c2n[nH]cc2-c2ccnc3ccccc23)c1` — result for “log2 fold change”: -0.17 (IKS1 (Candida albicans); kinase binding, MIB/MS competition; Candida albicans lysate; 10 µM; reference: DMSO).
`CCn1c(=O)/c(=C2\Sc3cc(Cl)ccc3N2C)s/c1=C\c1scc[n+]1Cc1ccccc1` has an EC50 of 22.6 µM (iPSC-derived cardiomyocytes; concentration-response curve, refers to: MyBP-C protein level).
The viability of `Cc1cc(C)c(CNC(=O)c2cc(-c3ccc(CN4CCOCC4)cc3)cc3c2cnn3C2CCCC2)c(=O)[nH]1` is reported as 187% (OCI-Ly1; 0.1 µM, 120 h).
`CC(C)(c1ccc(O)cc1)c1ccc(O)cc1` — result for “S phase cells”: 9.61 ± 1.74% (HepG2 spheroids; Hoechst flow cytometry; 0.10 µM, 96 h).
`CCc1cnc(N2CCC(c3nc(COc4ccc(-n5cnnn5)cc4)cs3)CC2)nc1`: “normalized enrichment score” -1.28 (HEK-293T; RNA-seq GSEA, refers to: Hallmark allograft rejection; concentration not given; direction not given).
For `Nc1cc(F)ccc1NC(=O)/C=C/c1cnn(C/C=C/c2ccccc2)c1`, the viability was 148% (OCI-Ly1; 0.5 µM, 120 h).
`Cn1cc(-c2ccc(-c3cncc(Cl)c3N3CCC4(CCNC4=O)CC3)cc2)cn1` — result for “log2 fold change”: -2.29 (COLO 205; gene expression, microarray, refers to: AURKA mRNA; concentration not given, 6 h; reference: untreated cells).
`Cc1[nH]c2ccccc2c1CCNCc1ccc(/C=C/C(=O)NO)cc1` gave a viability of 0.374% (OCI-Ly1; 1 µM, 120 h).
The EC50 of `[Cl-].[Cl-].[Ru+2].c1cnc2c(c1)ccc1cccnc12.c1cnc2c(c1)ccc1cccnc12.c1csc(-c2ccc(-c3ccc(-c4nc5c6cccnc6c6ncccc6c5[nH]4)s3)s2)c1` is reported as 66.4 µM (SK-MEL-28; resazurin viability; dark, normoxia).
`O=C(/C=C/C=C/C=C/C1CCCCC1)NC1=C[C@@](O)(/C=C/C=C/C=C/C(=O)NC2=C(O)CCC2=O)[C@@H]2O[C@@H]2C1=O` has a GI50 of 12.9 µM (IGR-1; cell growth, CellTiter-Glo; 78 h).
With `C=CC1=C(C)c2cc3[n-]c(cc4nc(cc5[n-]c(cc1n2)c(C)c5C=C)C(C)=C4CCC(=O)O)c(CCC(=O)O)c3C.[Zn+2]` the fold change was 1.87 (SH-SY5Y; RNA-seq, refers to: PLAT mRNA; 5 µM, 5 h; reference: untreated cells).
The EC50 of `CCn1cc(-c2cc(Cn3ccoc3=N)cc3c2CCN([C@@H](C)c2cc(OC)ccn2)C3=O)c(C(F)(F)F)n1` is reported as 0.429 µM (RERF-LC-Ad2; cell growth, inhibitor; 120 h).
Under “log2 fold change”, `Cc1ncsc1-c1ccc([C@H](C)NC(=O)[C@H]2C[C@H](O)CN2C(=O)[C@@H](NC(=O)CCCCCCCCCNC(=O)c2ccc3c(c2)[C@H](NC(=O)c2cc(-c4ccc(C(=O)N(C)C)c(O)c4)on2)CC3)C(C)(C)C)cc1` is recorded as -0.32 (MV4-11; TMT proteomics, refers to: ATP9A/ATP9B protein; concentration not given, 6 h; reference: DMSO).
`CCOC(=O)N1CCC(CN(Cc2ccc(Cl)cc2)Cc2ccc([N+](=O)[O-])s2)C1` (centres unmarked) gave an inhibition of 43% (HepG2, control siRNA; transcription, qPCR, refers to: BMAL1 mRNA; concentration not given).
The metabolic activity of `CN1C(C(=O)Nc2ccccn2)=C(O)c2sc(Cl)cc2S1(=O)=O` is reported as 0.96 ± 0.02 (COS-7; WST-8; 30 µM, 24 h, 0.1% DMSO, unit not given; reference: vehicle control).
For `O=C(/C=C/N1C[C@H]2C[C@@H]1CN2c1ccccn1)c1ccccc1O`, the viability was 50.9% (OCI-Ly1; 0.5 µM, 120 h).
With `COCCOCc1ccc(-c2cc3onc(-c4ccccc4)c3c(=O)n2C)cc1` the metabolic activity was 0.96 (COS-7; WST-8; 3 µM, 24 h, 0.1% DMSO, unit not given; reference: vehicle control).
`COc1cnc2cccc(N3CCc4c(cc(Cn5ccnc5C)cc4-c4cn(C)nc4C(F)(F)F)C3=O)c2c1` has an EC50 of greater than 30 µM (OVSAHO; cell growth, inhibitor; 120 h).
`COc1cc(/C=C/C(=O)N2CCC=CC2=O)cc(OC)c1OC` has a mRNA level of 164% (MDA-MB-468; quantitative RT-PCR, refers to: SOD1; 30 µM, 8 h; reference: untreated cells).
`c1ccc2c(Cc3c[nH]c4ccccc34)c[nH]c2c1` gave a viability of 138% (OCI-Ly1; 1 µM, 120 h).
`Fc1ccc(CNc2ccc3c[nH]nc3c2)cc1` gave a viability of 109 ± 7.24% (sample A patient iPSC-derived NPCs; MTS; 10 µM, 24 h; reference: vehicle).
Under “surface marker level”, `Nc1cccc2c1C(=O)N(C1CCC(=O)NC1=O)C2=O` (centres unmarked) is recorded as 45.2% (RPMI-8226; flow cytometry, refers to: CD27; concentration not given; reference: comparator compound alone).
`COc1cc([C@@H]2c3cc4c(cc3[C@@H](O[C@@H]3O[C@@H]5CO[C@@H](C)O[C@H]5[C@H](O)[C@H]3O)[C@H]3COC(=O)[C@H]23)OCO4)cc(OC)c1O` has a viability of 7.79% (OCI-Ly1; 1 µM, 120 h).
`C[C@H](Nc1ccc2c(c1)OCCn1cc(N3C(=O)OC[C@H]3C(F)F)nc1-2)C(N)=O` — result for “Hill coefficient GR curve”: 0.783 (HCC1954; cell growth, CellTiter-Glo; 120 h).
Under “cells in G0/G1 phase”, `Cc1cc(NS(=O)(=O)c2ccc(NC(=O)/C(C#N)=C/c3ccc(N4CCCCC4)cc3)cc2)no1` is recorded as 71.7% (HCT-116; flow cytometry; IC50, 48 h).
The cell viability of `COc1cc2c(c(O)c1OC)C(=O)c1c(cc(C)c(O)c1OC)C2=O` is reported as 99.8 ± 7.5% (HepaRG co-cultured with HK-2; MTT; 16.67 µM, 48 h; reference: untreated control).
The Emax of `O=[N+]([O-])c1ccc(O)cc1` is reported as 8.05% (human cells; reporter gene, agonist, luciferase reporter; reference: positive control).

For quick reference, copied from above:
`CC(C)(c1ccc(O)cc1)c1ccc(O)cc1` — result for “S phase cells”: 9.61 ± 1.74% (HepG2 spheroids; Hoechst flow cytometry; 0.10 µM, 96 h).
`CCc1cnc(N2CCC(c3nc(COc4ccc(-n5cnnn5)cc4)cs3)CC2)nc1`: “normalized enrichment score” -1.28 (HEK-293T; RNA-seq GSEA, refers to: Hallmark allograft rejection; concentration not given; direction not given).
For `Nc1cc(F)ccc1NC(=O)/C=C/c1cnn(C/C=C/c2ccccc2)c1`, the viability was 148% (OCI-Ly1; 0.5 µM, 120 h).
`Cn1cc(-c2ccc(-c3cncc(Cl)c3N3CCC4(CCNC4=O)CC3)cc2)cn1` — result for “log2 fold change”: -2.29 (COLO 205; gene expression, microarray, refers to: AURKA mRNA; concentration not given, 6 h; reference: untreated cells).
